{"data": "Results gathered from unrelated publications", "note": "Numbered parts are unrelated; each lists some results of a single study. Values joined by “and” are separate records of one study, mostly repeats; a detail may differ.", "UniProt P10721, sequence (whole entry, unmodified, looked up)": "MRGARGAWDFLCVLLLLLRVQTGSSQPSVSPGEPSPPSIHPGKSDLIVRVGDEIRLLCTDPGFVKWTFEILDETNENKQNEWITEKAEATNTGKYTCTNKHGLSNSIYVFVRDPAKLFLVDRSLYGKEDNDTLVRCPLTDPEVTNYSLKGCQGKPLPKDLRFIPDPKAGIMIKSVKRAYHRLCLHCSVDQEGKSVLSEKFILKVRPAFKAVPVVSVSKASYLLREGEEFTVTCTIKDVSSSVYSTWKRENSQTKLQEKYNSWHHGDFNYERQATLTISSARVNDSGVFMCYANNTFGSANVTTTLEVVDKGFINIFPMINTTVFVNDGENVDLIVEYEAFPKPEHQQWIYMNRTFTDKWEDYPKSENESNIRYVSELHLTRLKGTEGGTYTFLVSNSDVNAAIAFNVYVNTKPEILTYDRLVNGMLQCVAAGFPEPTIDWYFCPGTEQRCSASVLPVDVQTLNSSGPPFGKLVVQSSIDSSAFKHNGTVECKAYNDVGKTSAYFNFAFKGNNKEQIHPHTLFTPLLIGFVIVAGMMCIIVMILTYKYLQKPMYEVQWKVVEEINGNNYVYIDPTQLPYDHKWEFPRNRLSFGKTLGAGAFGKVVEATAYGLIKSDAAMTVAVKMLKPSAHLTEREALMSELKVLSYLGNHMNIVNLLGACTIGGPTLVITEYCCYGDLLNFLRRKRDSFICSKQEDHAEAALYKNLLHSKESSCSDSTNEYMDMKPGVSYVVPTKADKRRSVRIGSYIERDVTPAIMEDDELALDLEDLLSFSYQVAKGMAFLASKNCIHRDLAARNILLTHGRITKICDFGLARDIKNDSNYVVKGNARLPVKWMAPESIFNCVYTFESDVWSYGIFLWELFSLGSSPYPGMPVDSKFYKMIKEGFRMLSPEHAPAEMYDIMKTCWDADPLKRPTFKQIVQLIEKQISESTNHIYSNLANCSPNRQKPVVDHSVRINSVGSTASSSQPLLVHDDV", "UniProt Q07912, sequence (whole entry, looked up)": "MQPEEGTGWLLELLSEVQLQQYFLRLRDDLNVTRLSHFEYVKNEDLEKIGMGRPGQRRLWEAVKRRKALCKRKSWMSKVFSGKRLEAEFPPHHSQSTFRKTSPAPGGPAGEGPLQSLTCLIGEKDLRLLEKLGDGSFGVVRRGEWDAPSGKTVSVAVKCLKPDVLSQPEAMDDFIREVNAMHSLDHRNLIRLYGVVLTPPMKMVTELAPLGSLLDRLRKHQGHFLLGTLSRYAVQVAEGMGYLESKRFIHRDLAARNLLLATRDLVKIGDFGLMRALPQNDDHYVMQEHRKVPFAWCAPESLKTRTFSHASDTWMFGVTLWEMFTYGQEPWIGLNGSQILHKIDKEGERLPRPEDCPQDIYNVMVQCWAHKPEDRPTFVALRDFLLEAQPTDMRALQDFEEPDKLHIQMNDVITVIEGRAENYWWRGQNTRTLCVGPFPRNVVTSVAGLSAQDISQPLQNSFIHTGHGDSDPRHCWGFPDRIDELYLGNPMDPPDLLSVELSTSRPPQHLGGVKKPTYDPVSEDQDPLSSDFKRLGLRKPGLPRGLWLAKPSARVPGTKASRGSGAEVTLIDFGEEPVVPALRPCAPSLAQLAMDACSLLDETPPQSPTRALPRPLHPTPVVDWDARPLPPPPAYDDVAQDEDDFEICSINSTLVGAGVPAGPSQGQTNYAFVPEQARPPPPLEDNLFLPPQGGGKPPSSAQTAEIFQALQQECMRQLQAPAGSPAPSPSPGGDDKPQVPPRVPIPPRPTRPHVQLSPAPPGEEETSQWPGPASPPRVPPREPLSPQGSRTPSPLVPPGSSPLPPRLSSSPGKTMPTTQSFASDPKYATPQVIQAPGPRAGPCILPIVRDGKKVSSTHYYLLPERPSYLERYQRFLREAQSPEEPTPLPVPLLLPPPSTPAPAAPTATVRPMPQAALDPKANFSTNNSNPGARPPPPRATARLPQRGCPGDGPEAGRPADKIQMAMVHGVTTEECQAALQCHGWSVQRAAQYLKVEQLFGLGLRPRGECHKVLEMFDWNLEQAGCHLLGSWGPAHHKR"}
{"data": "Series 1", "target": "DNA polymerase theta, ATPase domain (POLQ, Homo sapiens, UniProt O75417)", "read-out": "enzyme activity", "action": "inhibitor", "concentration": "77 µM", "baseline": "untreated", "UniProt O75417, sequence (whole entry, unmodified, looked up)": "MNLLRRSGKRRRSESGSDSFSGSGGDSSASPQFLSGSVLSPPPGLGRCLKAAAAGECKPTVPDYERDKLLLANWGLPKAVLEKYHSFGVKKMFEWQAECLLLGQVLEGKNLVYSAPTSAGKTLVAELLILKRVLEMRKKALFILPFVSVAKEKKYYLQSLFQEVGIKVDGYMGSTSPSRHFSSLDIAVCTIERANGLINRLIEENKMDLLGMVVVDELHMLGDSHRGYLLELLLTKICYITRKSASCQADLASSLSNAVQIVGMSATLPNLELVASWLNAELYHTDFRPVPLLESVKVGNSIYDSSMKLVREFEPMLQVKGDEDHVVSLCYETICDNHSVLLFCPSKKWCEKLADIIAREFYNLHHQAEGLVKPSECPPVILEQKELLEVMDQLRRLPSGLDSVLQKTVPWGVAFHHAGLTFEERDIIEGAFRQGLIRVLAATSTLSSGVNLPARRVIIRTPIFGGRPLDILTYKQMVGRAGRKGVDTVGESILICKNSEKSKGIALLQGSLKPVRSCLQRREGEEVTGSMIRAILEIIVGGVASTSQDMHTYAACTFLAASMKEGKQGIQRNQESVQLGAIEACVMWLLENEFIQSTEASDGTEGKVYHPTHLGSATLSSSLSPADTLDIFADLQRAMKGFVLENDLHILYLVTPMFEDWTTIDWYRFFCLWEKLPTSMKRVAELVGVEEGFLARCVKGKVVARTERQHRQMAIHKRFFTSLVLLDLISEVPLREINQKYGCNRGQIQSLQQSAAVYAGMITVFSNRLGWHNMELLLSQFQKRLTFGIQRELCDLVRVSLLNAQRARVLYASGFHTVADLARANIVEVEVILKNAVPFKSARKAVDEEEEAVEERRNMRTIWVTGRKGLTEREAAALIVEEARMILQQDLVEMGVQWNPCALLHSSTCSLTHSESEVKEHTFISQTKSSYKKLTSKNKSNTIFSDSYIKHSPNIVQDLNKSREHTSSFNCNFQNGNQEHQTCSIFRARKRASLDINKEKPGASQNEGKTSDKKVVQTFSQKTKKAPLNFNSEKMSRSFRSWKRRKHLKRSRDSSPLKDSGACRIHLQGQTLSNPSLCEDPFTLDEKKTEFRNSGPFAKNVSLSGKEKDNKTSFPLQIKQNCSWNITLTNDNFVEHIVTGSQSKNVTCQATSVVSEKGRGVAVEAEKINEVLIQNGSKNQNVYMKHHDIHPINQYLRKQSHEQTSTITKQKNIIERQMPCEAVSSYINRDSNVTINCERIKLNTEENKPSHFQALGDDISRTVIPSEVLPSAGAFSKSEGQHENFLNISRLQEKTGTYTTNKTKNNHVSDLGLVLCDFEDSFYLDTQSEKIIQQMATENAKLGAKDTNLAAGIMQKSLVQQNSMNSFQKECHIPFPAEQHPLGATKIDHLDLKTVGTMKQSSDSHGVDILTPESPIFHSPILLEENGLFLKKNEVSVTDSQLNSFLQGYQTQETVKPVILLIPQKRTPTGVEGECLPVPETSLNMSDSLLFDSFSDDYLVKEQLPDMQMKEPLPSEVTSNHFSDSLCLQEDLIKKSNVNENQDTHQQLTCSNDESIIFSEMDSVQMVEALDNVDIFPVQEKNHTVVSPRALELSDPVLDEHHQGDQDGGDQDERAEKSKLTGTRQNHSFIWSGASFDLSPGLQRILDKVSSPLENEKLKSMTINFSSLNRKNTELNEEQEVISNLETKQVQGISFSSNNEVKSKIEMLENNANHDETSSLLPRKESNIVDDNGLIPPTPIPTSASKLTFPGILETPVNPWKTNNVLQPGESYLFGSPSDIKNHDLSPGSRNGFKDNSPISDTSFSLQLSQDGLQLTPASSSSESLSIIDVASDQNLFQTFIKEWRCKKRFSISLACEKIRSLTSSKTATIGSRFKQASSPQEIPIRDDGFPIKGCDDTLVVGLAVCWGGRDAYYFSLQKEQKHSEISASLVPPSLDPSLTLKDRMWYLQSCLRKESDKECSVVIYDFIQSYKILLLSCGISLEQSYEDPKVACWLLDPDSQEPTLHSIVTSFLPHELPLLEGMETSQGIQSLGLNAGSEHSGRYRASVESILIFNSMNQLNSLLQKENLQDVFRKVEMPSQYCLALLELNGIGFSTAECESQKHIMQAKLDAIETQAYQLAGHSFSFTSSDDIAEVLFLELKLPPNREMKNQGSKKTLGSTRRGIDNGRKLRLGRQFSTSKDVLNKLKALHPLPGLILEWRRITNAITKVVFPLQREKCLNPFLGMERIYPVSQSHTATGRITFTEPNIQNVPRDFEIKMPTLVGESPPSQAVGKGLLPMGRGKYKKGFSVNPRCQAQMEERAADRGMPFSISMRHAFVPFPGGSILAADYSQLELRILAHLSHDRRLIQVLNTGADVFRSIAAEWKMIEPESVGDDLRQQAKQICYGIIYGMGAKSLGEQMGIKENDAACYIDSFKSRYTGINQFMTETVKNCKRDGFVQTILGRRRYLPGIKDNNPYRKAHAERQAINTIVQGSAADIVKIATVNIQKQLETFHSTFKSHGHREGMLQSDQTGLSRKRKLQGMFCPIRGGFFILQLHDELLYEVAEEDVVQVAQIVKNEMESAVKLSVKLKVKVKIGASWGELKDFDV"}
{"SMILES": "CC(=O)O/N=C1\\C(=O)N(Cc2cc(Cl)ccc2Cl)c2ccc(Cl)cc21", "remaining activity": "99.8%"}
{"SMILES": "Cc1cc(/C=C2/SC(=S)NC2=O)c(C)n1-c1cccnc1", "remaining activity": "91.1%"}
{"SMILES": "Nc1nc(Cl)nc2c1ncn2[C@@H]1O[C@H](COP(=O)(O)OP(=O)(O)OP(=O)(O)O)[C@H](O)C1O (stereo partly shown)", "remaining activity": "92.8%"}
{"SMILES": "N=C(N)SCCN", "remaining activity": "96.2%"}
{"SMILES": "CC(C)n1cnc2c(NCc3ccccc3O)nc(NCCCO)nc21", "remaining activity": "104%"}
{"SMILES": "O=C1NC(=O)C(c2c[nH]c3ccccc23)=C1c1c[nH]c2ccccc12", "remaining activity": "119%"}
{"SMILES": "CC1(C)CCC(C)(C)c2cc(NC(=O)c3ccc(C(=O)O)cc3)ccc21", "remaining activity": "93.9%"}
{"SMILES": "CC(=O)O[C@]1(C(C)=O)CC[C@H]2[C@@H]3C[C@H](C)C4=CC(=O)CC[C@]4(C)[C@H]3CC[C@@]21C", "remaining activity": "102%"}
{"SMILES": "CCc1nc(-c2ccc(OC)cc2)[nH]c1-c1ccncc1", "remaining activity": "101%"}
{"SMILES": "O=C(O)c1cccnc1Nc1cccc(C(F)(F)F)c1", "remaining activity": "72.3%"}
{"SMILES": "CC[C@]1(O)C[C@H]2CN(CCc3c([nH]c4ccccc34)[C@@](C(=O)OC)(c3cc4c(cc3OC)N(C=O)[C@H]3[C@@](O)(C(=O)OC)[C@H](OC(C)=O)[C@]5(CC)C=CCN6CC[C@]43[C@@H]65)C2)C1", "remaining activity": "101%"}
{"SMILES": "O=C(Cn1ccnc1[N+](=O)[O-])NCCO", "remaining activity": "96.7%"}
{"SMILES": "CCOC(=O)c1cnc2c(cnn2CC)c1NN=C(C)C", "remaining activity": "101%"}
{"SMILES": "CC(=O)Nc1ccc([C@H](C)C(=O)Nc2ncc(C(C)C)s2)cc1", "remaining activity": "111% and 106% and 107%"}
{"data": "Series 2", "SMILES": "Cc1c(NC(=O)c2cc(C(N)=O)nc3cc(F)ccc23)c(C(F)(F)F)nn1Cc1ccc(C(C)(C)C)cc1", "read-out": "cell-free assay", "technique": "competition with immobilised ligand", "concentration": "1 µM"}
{"target": "PAK2 (Homo sapiens, UniProt Q13177)", "remaining binding": "85%"}
{"target": "NEK11 (Homo sapiens, UniProt Q8NG66)", "remaining binding": "100%"}
{"target": "NEK10 (Homo sapiens, UniProt Q6ZWH5)", "remaining binding": "100%"}
{"target": "ERBB3 (Homo sapiens, UniProt P21860)", "remaining binding": "94%"}
{"target": "TNK2 (Homo sapiens, UniProt Q07912)", "remaining binding": "100%"}
{"target": "RAF1 (Homo sapiens, UniProt P04049)", "remaining binding": "88%"}
{"target": "CDKL1 (Homo sapiens, UniProt Q00532)", "remaining binding": "100%"}
{"target": "EPHA5 (Homo sapiens, UniProt P54756)", "remaining binding": "74%"}
{"target": "Tyrosine-protein kinase ABL1, phosphorylated (ABL1, Homo sapiens, UniProt P00519, Q252H)", "remaining binding": "100%"}
{"target": "KIT (Homo sapiens, UniProt P10721, T670I/V559D)", "remaining binding": "100%"}
{"target": "KIT (Homo sapiens, UniProt P10721, D816V)", "remaining binding": "82%"}
{"target": "EGFR (Homo sapiens, UniProt P00533, G719S)", "remaining binding": "78%"}
{"target": "MAP3K11 (Homo sapiens, UniProt Q16584)", "remaining binding": "100%"}
{"data": "Series 3", "SMILES": "CCCCc1c(-c2ccc(OC)cc2)[nH]c2nccnc12", "read-out": "enzyme activity", "action": "inhibitor", "concentration": "0.5 µM", "baseline": "control"}
{"target": "MAPK11 (Homo sapiens, UniProt Q15759)", "remaining activity [%]": 100}
{"target": "AKT2 (Homo sapiens, UniProt P31751)", "remaining activity [%]": 93.8}
{"target": "MAPK14 (Homo sapiens, UniProt Q16539)", "remaining activity [%]": 112}
{"target": "MARK4 (Homo sapiens, UniProt Q96L34)", "remaining activity [%]": 88.3}
{"target": "MAPK1 (Homo sapiens, UniProt P28482)", "remaining activity [%]": 103}
{"target": "PAK3 (Homo sapiens, UniProt O75914)", "remaining activity [%]": 106}
{"target": "ROCK1 (Homo sapiens, UniProt Q13464)", "remaining activity [%]": 99.9}
{"target": "CDC42BPB (Homo sapiens, UniProt Q9Y5S2)", "remaining activity [%]": 92.5}
{"target": "DDR2 (Homo sapiens, UniProt Q16832)", "remaining activity [%]": 94.3}
{"target": "Cyclin-dependent kinase 9, with cyclin K (CDK9, Homo sapiens, UniProt P50750)", "remaining activity [%]": 56.9}
{"target": "Cyclin-dependent kinase 1, with cyclin A (CDK1, Homo sapiens, UniProt P06493)", "remaining activity [%]": 65.4}
{"target": "TXK (Homo sapiens, UniProt P42681)", "remaining activity [%]": 72.7}
{"target": "GRK4 (Homo sapiens, UniProt P32298)", "remaining activity [%]": 96.7}
{"target": "PNCK (Homo sapiens, UniProt Q6P2M8)", "remaining activity [%]": 120}
{"data": "Series 4", "target": "Calcium/calmodulin-dependent protein kinase type II subunit alpha (CAMK2A, Homo sapiens, UniProt Q9UQM7)", "read-out": "enzyme activity", "action": "inhibitor", "concentration": "10 µM", "UniProt Q9UQM7, sequence (whole entry, looked up)": "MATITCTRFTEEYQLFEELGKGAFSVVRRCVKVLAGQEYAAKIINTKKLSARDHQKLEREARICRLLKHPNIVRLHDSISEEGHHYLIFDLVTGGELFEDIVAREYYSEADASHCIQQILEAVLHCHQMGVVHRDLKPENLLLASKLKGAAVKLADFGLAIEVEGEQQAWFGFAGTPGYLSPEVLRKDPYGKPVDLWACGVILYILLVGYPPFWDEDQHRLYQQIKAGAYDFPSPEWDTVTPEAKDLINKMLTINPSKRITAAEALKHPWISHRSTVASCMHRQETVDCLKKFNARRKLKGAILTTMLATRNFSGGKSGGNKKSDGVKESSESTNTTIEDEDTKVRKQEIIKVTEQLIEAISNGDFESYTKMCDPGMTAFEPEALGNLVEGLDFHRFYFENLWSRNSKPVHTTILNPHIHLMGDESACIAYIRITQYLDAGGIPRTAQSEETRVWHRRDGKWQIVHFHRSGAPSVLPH"}
{"SMILES": "C[C@@H]1O[C@@H](OC[C@H]2O[C@@H](Oc3cc(O)c4c(c3)O[C@H](c3ccc(O)cc3)CC4=O)[C@H](O)[C@@H](O)[C@@H]2O)[C@H](O)[C@H](O)[C@H]1O", "inhibition": "-28%"}
{"SMILES": "Cn1nnc(-c2ccc(-c3ccc(N4C[C@H](COP(=O)(O)O)OC4=O)cc3F)cn2)n1", "inhibition": "-1%"}
{"SMILES": "Nc1ncnc2c1ncn2[C@@H]1C[C@H](CO)[C@@H](O)[C@H]1O", "inhibition": "1%"}
{"SMILES": "O=C(CCc1ccc(O)c(O)c1)NCCCNCCCCNCCCNC(=O)CCc1ccc(O)c(O)c1", "inhibition": "-6%"}
{"SMILES": "CC(=O)[C@@]1(O)CC[C@H]2[C@@H]3C[C@H](C)C4=CC(=O)C=C[C@]4(C)[C@@]3(F)[C@@H](O)C[C@@]21C", "inhibition": "-13%"}
{"SMILES": "COC1=CC(=O)C=C(OC)C1=O", "inhibition": "-3%"}
{"SMILES": "C[C@H](CC[C@@]1(O)O[C@H]2C[C@H]3[C@@H]4CC=C5C[C@@H](O[C@@H]6O[C@H](CO)[C@@H](O[C@@H]7O[C@@H](C)[C@H](O)[C@@H](O)[C@H]7O)[C@H](O)[C@H]6O[C@@H]6O[C@@H](C)[C@H](O)[C@@H](O)[C@H]6O)CC[C@]5(C)[C@H]4CC[C@]3(C)[C@H]2[C@@H]1C)CO[C@@H]1O[C@H](CO)[C@@H](O)[C@H](O)[C@H]1O", "inhibition": "-13%"}
{"SMILES": "CC1(C)[C@@H](O[C@H]2O[C@H](C(=O)O)[C@@H](O)[C@H](O)[C@H]2O[C@@H]2O[C@H](C(=O)O)[C@@H](O)[C@H](O)[C@H]2O)CC[C@]2(C)[C@H]3C(=O)C=C4[C@@H]5C[C@@](C)(C(=O)O)CC[C@]5(C)CC[C@@]4(C)[C@]3(C)CC[C@@H]12", "inhibition": "-0.05% and -0.13% and -0.02%"}
{"SMILES": "CCN1CCCC1CNC(=O)c1cc(S(N)(=O)=O)ccc1OC (stereo not shown)", "inhibition": "-9%"}
{"SMILES": "CC(C)(O)[C@@H]1Cc2c(cc3oc(CO)cc(=O)c3c2O)O1", "inhibition": "-10%"}
{"SMILES": "Nc1ccccc1S(=O)(=O)O", "inhibition": "1%"}
{"SMILES": "CC(C)NCC(O)COc1ccc(CC(N)=O)cc1 (stereo not shown)", "inhibition": "-13%"}
{"SMILES": "CCCCCCCCCCCCC", "inhibition": "-18%"}
{"SMILES": "C[C@H]1Oc2cc(cnc2N)-c2c(nn(C)c2C#N)CN(C)C(=O)c2ccc(F)cc21", "inhibition": "4%"}
{"note": "For quick reference, copied from above (series 3):"}
{"target": "AKT2 (Homo sapiens, UniProt P31751)", "remaining activity [%]": 93.8}
{"target": "MAPK14 (Homo sapiens, UniProt Q16539)", "remaining activity [%]": 112}
{"target": "MARK4 (Homo sapiens, UniProt Q96L34)", "remaining activity [%]": 88.3}
{"target": "MAPK1 (Homo sapiens, UniProt P28482)", "remaining activity [%]": 103}
{"target": "PAK3 (Homo sapiens, UniProt O75914)", "remaining activity [%]": 106}
{"target": "ROCK1 (Homo sapiens, UniProt Q13464)", "remaining activity [%]": 99.9}
{"target": "CDC42BPB (Homo sapiens, UniProt Q9Y5S2)", "remaining activity [%]": 92.5}
{"target": "DDR2 (Homo sapiens, UniProt Q16832)", "remaining activity [%]": 94.3}
